Experimental data of several laboratories.
Every numbered part comes from another study and shows a few of its results, in no order. “And” joins repeats or separate records; there may be more than shown.
UniProt Q9H4A3, sequence (whole entry, looked up): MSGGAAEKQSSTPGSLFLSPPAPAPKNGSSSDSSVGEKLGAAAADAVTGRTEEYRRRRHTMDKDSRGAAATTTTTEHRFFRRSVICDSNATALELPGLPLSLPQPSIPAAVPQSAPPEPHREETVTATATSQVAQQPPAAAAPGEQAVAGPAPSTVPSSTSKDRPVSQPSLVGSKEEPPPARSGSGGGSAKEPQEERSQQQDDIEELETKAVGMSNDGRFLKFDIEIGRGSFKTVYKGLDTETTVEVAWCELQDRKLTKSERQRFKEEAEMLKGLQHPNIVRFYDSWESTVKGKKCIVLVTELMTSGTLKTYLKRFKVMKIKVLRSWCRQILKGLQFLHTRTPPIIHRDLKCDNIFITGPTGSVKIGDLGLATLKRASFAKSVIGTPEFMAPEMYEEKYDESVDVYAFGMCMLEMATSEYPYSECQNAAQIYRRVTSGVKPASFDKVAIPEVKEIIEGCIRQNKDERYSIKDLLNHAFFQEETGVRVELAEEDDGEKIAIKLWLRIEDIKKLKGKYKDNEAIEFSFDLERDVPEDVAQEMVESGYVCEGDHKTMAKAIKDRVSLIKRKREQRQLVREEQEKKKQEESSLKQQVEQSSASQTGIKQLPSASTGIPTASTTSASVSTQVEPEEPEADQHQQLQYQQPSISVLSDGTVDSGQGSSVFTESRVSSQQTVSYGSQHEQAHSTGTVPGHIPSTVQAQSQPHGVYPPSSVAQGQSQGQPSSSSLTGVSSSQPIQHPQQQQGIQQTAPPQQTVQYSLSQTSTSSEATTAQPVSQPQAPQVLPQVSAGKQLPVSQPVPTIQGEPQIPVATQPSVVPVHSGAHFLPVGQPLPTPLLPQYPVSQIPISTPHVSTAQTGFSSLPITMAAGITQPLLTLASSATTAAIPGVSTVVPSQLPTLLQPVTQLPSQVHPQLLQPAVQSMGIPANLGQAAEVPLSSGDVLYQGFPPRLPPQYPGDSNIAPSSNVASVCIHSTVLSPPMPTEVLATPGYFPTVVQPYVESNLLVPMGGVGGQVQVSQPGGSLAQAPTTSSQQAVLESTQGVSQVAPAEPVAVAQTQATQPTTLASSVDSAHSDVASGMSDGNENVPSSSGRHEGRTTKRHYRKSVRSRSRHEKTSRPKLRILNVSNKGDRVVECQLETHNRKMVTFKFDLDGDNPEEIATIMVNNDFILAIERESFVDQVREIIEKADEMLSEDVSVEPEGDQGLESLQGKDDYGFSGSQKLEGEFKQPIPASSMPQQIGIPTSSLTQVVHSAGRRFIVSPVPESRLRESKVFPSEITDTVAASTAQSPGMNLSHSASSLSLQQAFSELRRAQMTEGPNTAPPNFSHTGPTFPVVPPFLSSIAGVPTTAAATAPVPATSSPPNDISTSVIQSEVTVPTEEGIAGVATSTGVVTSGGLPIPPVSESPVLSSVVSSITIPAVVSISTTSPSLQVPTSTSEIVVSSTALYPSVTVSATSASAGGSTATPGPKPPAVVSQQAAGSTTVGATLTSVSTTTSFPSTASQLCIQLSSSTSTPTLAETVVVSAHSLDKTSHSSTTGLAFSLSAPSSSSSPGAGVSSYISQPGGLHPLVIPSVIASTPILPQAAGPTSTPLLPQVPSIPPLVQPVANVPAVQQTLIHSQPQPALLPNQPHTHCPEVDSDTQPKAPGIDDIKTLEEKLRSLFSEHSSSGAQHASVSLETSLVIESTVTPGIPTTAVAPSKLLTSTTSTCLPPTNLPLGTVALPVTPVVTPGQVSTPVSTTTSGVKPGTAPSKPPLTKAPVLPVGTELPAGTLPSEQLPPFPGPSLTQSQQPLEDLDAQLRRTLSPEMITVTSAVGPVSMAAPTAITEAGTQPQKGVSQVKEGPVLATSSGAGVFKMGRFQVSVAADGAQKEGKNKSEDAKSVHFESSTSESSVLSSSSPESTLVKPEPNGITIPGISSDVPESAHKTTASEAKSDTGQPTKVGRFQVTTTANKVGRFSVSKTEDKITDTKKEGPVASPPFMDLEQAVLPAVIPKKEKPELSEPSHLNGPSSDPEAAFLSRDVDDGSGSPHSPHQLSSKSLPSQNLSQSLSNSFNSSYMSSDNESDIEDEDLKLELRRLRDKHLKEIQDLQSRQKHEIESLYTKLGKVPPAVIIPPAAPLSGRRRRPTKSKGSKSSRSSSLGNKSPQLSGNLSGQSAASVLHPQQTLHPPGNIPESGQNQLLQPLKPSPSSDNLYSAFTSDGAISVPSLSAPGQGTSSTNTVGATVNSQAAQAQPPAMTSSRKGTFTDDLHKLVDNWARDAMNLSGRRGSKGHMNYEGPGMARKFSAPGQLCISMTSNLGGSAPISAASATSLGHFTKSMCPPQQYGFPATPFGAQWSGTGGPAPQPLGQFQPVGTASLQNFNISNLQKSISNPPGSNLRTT
UniProt P53671, sequence (whole entry, looked up): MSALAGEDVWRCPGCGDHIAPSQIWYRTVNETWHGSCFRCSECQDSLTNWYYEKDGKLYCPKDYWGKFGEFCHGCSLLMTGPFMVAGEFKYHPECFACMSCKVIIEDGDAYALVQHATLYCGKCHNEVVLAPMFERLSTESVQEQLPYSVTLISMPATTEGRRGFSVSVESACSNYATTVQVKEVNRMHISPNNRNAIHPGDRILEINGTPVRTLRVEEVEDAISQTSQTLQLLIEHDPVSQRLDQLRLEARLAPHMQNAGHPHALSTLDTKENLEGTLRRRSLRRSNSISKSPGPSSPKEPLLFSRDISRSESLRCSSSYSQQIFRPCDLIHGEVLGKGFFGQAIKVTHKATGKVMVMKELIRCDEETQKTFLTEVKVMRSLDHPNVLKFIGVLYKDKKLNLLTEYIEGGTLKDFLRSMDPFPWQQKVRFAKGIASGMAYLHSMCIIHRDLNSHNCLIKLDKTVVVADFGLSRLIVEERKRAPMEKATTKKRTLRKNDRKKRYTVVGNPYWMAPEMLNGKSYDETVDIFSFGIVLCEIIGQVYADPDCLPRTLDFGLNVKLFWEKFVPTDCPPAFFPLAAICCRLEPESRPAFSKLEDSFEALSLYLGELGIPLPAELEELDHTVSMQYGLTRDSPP
UniProt Q02750, sequence (whole entry, looked up): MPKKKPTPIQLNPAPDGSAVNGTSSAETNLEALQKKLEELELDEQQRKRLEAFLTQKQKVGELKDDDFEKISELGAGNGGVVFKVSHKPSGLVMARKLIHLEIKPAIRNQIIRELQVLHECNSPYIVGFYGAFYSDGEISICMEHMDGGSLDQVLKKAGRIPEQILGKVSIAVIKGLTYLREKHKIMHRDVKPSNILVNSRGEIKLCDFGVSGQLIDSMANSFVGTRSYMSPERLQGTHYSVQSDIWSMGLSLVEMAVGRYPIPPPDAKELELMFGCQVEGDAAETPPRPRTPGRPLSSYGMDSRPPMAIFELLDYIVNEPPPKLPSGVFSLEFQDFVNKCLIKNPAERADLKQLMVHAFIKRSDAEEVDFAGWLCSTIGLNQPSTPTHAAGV

Set 1
Target: Diamine acetyltransferase 1 (Homo sapiens, UniProt P21673)
Mode: inhibitor
Tested at: 10 µM
Baseline: control
Quantity: remaining activity
Residues (P21673 1-171): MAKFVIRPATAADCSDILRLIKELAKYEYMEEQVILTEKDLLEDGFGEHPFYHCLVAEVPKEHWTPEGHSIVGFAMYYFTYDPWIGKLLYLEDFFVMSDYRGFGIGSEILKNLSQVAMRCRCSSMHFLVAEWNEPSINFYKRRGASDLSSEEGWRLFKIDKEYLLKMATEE
CCC/C=C1\OC(=O)C2=C1CCC=C2: 94.2%
CC(=O)c1ccc(C)cc1O: 96.1%
OCCc1ccc(O)cc1: 82.9%
C=CC(C)(C)c1cc(/C=C/C(=O)c2ccc(O)cc2)c(OC)cc1O: 83.4%
COc1c(O)cc2oc(-c3ccc(O)cc3)cc(=O)c2c1O: 99.4%
O=C[C@H](O)[C@@H](O)[C@H](O[C@H]1O[C@H](CO)[C@@H](O[C@H]2O[C@H](CO)[C@@H](O[C@H]3O[C@H](CO)[C@@H](O)[C@H](O)[C@H]3O)[C@H](O)[C@H]2O)[C@H](O)[C@H]1O)[C@H](O)CO: 85.9%
OC[C@H]1O[C@H](O)[C@H](O)[C@@H](O)[C@@H]1O: 102%
CCCCCCC[C@H](O)CC(=O)CCc1ccc(O)c(OC)c1: 100%

Set 2
Target: Rho-associated protein kinase 2 (ROCK2, Homo sapiens, UniProt O75116)
UniProt O75116, sequence (whole entry, looked up): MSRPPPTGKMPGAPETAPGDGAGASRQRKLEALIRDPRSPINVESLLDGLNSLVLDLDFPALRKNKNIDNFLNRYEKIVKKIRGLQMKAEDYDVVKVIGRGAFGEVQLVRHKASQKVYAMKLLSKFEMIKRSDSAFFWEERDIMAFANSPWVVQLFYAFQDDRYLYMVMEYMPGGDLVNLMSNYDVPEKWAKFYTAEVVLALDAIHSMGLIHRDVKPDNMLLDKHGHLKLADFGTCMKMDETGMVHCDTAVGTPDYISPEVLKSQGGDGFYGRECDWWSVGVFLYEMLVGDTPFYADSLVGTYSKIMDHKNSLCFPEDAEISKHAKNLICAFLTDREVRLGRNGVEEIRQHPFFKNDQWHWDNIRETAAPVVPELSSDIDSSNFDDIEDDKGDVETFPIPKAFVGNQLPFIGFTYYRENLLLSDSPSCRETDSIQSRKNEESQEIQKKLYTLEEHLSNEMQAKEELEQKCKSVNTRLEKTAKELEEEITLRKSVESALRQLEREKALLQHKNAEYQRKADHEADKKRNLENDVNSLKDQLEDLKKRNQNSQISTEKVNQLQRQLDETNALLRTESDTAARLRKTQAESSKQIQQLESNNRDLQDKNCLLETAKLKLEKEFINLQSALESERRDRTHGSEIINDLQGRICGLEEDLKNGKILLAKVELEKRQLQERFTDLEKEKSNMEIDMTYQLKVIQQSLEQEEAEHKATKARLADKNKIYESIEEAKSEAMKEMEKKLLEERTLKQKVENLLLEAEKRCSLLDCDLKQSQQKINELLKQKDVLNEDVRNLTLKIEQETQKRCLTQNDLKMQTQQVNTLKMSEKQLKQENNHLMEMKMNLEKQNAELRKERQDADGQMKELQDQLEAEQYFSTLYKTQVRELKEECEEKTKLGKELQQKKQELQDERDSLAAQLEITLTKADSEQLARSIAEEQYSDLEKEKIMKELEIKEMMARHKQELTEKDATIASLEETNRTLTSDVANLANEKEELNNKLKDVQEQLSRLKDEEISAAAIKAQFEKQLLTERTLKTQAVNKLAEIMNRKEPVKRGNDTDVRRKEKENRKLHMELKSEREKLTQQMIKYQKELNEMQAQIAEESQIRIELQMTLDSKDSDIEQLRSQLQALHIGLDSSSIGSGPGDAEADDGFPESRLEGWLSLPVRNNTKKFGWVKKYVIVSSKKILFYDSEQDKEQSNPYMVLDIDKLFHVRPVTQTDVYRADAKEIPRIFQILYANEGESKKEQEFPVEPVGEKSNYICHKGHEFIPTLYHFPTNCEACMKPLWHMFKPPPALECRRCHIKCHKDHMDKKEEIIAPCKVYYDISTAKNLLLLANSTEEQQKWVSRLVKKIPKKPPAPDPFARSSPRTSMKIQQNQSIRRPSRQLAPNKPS
Effect on: enzyme activity
Mode: inhibitor
Tested at: 0.5 µM
Baseline: control
Quantity: remaining activity
O=C1Nc2ccccc2/C1=C\c1c(Cl)[nH]c2ccccc12: 90.2%
O=C1Cc2c([nH]c3ccc(Br)cc23)-c2ccccc2N1: 84.6%
N#Cc1cnc2cnc(NCc3cccnc3)cc2c1Nc1ccc(F)c(Cl)c1: 97.1%
N#C/C(=C(/N)SC1C=CC=CC1)c1cccc(C(O)c2ccncc2)c1 (stereo not drawn): 80.6%
O=c1cc(N2CCOCC2)oc2c(-c3ccccc3)cccc12: 95.2%
NC(=O)c1ccc(-c2nc(-c3ccc4c(c3)OCCO4)c(-c3ccccn3)[nH]2)cc1: 93.1%
N#CC(c1ccnc(NCCc2cccnc2)n1)c1nc2ccccc2s1 (stereo not drawn): 83.6%
O=C1c2ccccc2-c2nc3nnnn3nc21: 81.7%
COc1cccc(-c2cc(=O)c3ccccc3o2)c1N: 91.5%
CCCCc1c(-c2ccc(O)cc2)[nH]c2nccnc12: 97.5%
Cc1cc(Nc2cc(N3CCN(C)CC3)nc(Sc3ccc(NC(=O)C4CC4)cc3)n2)[nH]n1: 92%
CC(C)(C)c1nc2c3cc[nH]c(=O)c3c3cc(F)ccc3c2[nH]1: 70.7%
CC(C)N(CCC(=O)c1ccc2ccccc2c1)Cc1ccccc1: 92.8%
c1ccc(-c2n[nH]c3c2oc2ccccc23)cc1: 87.3%
COc1cc2c(N3CCN(C(=O)Nc4ccc(OC(C)C)cc4)CC3)ncnc2cc1OCCCN1CCCCC1: 90.8%
O=c1c(-c2ccc(F)cc2)c(-c2ccncc2)[nH]n1-c1ccc(Cl)cc1: 89.5%
Oc1cccc(-c2nc(N3CCOCC3)c3oc4ncccc4c3n2)c1: 94.5%
CCCNC(=O)Nc1ccc(Oc2ncnc3cc(OC)c(OC)cc23)cc1Cl: 97.7%
O=C1NC(=O)c2c1c1c3ccccc3[nH]c1c1[nH]c3cc(Br)ccc3c21: 72.7%
CCCCc1c(-c2ccc(OC)cc2)[nH]c2nccnc12: 97.2%
O=C(c1cc2cc(O)ccc2[nH]1)c1cc2cc(O)ccc2[nH]1: 92.9%
O=Nc1c(-c2c(O)[nH]c3ccccc23)[nH]c2ccccc12: 98.5%
FC(F)(F)c1ccc(/C=C/c2nc(COc3ccc(CCCCn4ccnn4)cc3)co2)cc1: 99.7%
CNc1cc2c(Nc3cccc(Br)c3)ncnc2cn1: 99.5%
CC(C)n1cnc2c(Nc3cccc(Cl)c3)nc(NCCO)nc21: 97.5%

Set 3
SMILES: CC(C)S(=O)(=O)c1ccc2nccc(Nc3ccc4sc(C5CCCC5)nc4c3)c2c1
Effect on: enzyme activity
Mode: inhibitor
Tested at: 1 µM
Quantity: activity vs control
Serine/threonine-protein kinase WNK1 (WNK1, Homo sapiens, UniProt Q9H4A3): 91.5%
Tyrosine-protein kinase Fyn (FYN, Homo sapiens, UniProt P06241): 94%
RAC-gamma serine/threonine-protein kinase (AKT3, Homo sapiens, UniProt Q9Y243): 95.5%
Serine/threonine-protein kinase B-raf (BRAF, Homo sapiens, UniProt P15056): 94%
Serine/threonine-protein kinase DCLK2 (DCLK2, Homo sapiens, UniProt Q8N568): 123%
AP2-associated protein kinase 1 (AAK1, Homo sapiens, UniProt Q2M2I8): 95%
Dual specificity mitogen-activated protein kinase kinase 1 (MAP2K1, Homo sapiens, UniProt Q02750): 99%

Set 4
Structure (SMILES): O=C(O)[C@H]1[C@H](Cn2nnc3ccccc3c2=O)CC[C@@H]1C(=O)c1ccc(OCCC2CCOCC2)cc1
Effect on: cell-free assay
Method: competition with immobilised ligand
Tested at: 1 µM
Quantity: remaining binding
Receptor-type tyrosine-protein kinase FLT3 (FLT3, Homo sapiens, UniProt P36888, N841I): 85%
Serine/threonine-protein kinase MRCK beta (CDC42BPB, Homo sapiens, UniProt Q9Y5S2): 100%
LIM domain kinase 2 (LIMK2, Homo sapiens, UniProt P53671): 90%
Activin receptor type-2A (ACVR2A, Homo sapiens, UniProt P27037): 87%
Testis-specific serine/threonine-protein kinase 1 (TSSK1B, Homo sapiens, UniProt Q9BXA7): 73%
Proto-oncogene tyrosine-protein kinase receptor Ret (RET, Homo sapiens, UniProt P07949): 82%
Serine/threonine-protein kinase RIO3 (RIOK3, Homo sapiens, UniProt O14730): 79%

Set 5
Cell line: mouse MPNST tumor cells
Method: high-content nuclear imaging
Item: cell number
Tested at: 10 µM
Time: 12 h
Notes: mean of 2 replicates
Baseline: plate mean
Direction: higher = more cells
Quantity: nuclei count
NC(=O)N1c2ccccc2C=Cc2ccccc21: -1.04 z-score and 1.46 z-score
O=[N+]([O-])c1cc2nc(O)c(O)nc2cc1[N+](=O)[O-]: 2.48 z-score
CCOc1cc(CC(=O)N[C@@H](CC(C)C)c2ccccc2N2CCCCC2)ccc1C(=O)O: 1.72 z-score and 0.33 z-score
Cc1ccc(-c2ccc(F)cc2COc2ccc(CCC(=O)O)cc2)cc1: 2.23 z-score
C=C1/C(=C\C=C2/CCC[C@]3(C)[C@@H]([C@H](C)CCCC(C)C)CC[C@@H]23)C[C@@H](O)C[C@@H]1O: -1.9 z-score
NCCCOc1cc2ccccc2cc1C(=O)NCCOc1cc2ccccc2cc1C(=O)Nc1ccc(Cl)cc1O: -6.33 z-score
C[N+](C)(C)CCOC(N)=O: 1.31 z-score and 2.82 z-score

A few entries again (set 2):
Cc1cc(Nc2cc(N3CCN(C)CC3)nc(Sc3ccc(NC(=O)C4CC4)cc3)n2)[nH]n1: 92%
N#CC(c1ccnc(NCCc2cccnc2)n1)c1nc2ccccc2s1 (stereo not drawn): 83.6%
CCCCc1c(-c2ccc(OC)cc2)[nH]c2nccnc12: 97.2%
